Assay results of several laboratories.
Protocols differ between the studies behind these lines. ± gives the spread as reported.
Organism: Trypanosoma brucei

O=C(O)CC1CC(Br)=NO1 (stereo not shown)  EC50 (parasite growth, resazurin; 72 h): > 100000 nM
Nc1nc(N)nc(Nc2ccc([As]3SCC(CO)S3)cc2)n1 (stereo not shown)  EC50 (parasite growth, resazurin; RHODESIENSE STIB900; 70 h): 6 nM
N=C(N)c1ccc(OCCCCCOc2ccc(C(=N)N)cc2)cc1  EC50 (parasite growth, resazurin; 72 h): 1 nM
Nc1cccc(-c2cc3c(Oc4cccc(O)c4)ncnc3[nH]2)c1  EC50 (transferrin endocytosis, inhibitor; bloodstream form; added: transferrin): 2000 ± 1000 nM
CC12CC3CC(C)(C1)CC(N)(C3)C2  IC50 (parasite growth; 48 h): 13800 nM
O=C1Nc2ccc3ncsc3c2/C1=C/Nc1ccc(S(=O)(=O)Nc2ccccn2)cc1  EC50 (transferrin endocytosis, inhibitor; bloodstream form; added: transferrin): 800 ± 100 nM
CC(N)C12CC3CC(CC(C3)C1)C2 (stereo not shown)  IC50 (parasite growth; 48 h): 7040 nM
N=C(N)c1ccc(OCCCCCOc2ccc(C(=N)N)cc2)cc1  IC50 (parasite growth, resazurin; 76 h): 3.2 nM
N=C(N)c1ccc(OCCCCCOc2ccc(C(=N)N)cc2)cc1  membrane potential change (safranine fluorescence; procyclic form; 5 µM, unit not given; higher = stronger uncoupling): 64 ± 11
COc1ccc2c3c4n(c2c1)[C@H](C=C(C)C)OOC(C)(C)C[C@@H]4N1C(=O)[C@@H]2CCCN2C(=O)[C@]1(O)[C@H]3O  IC50 (parasite growth; 40 h): < 20000 nM

A few entries again:
Nc1cccc(-c2cc3c(Oc4cccc(O)c4)ncnc3[nH]2)c1  EC50 (transferrin endocytosis, inhibitor; bloodstream form; added: transferrin): 2000 ± 1000 nM
